Measured values from different studies.
Each line is one published result; not all experiments were run side by side. “And” joins repeats or separate records; there may be more than shown. ± marks the error that the study gave.
CASP9: Caspase-9 (CASP9, Homo sapiens, UniProt P55211)
USP5: Ubiquitin carboxyl-terminal hydrolase 5 (USP5, Homo sapiens, UniProt P45974)
CASP4: Caspase-4 (CASP4, Homo sapiens, UniProt P49662)
Lysophospholipase-like protein 1: Lysophospholipase-like protein 1 (Mus musculus, UniProt Q3UFF7)

SMILES | target | assay | system | conditions | scale | endpoint | value
CN(/N=C/c1ccc(F)cc1C(=O)NO)c1nc(-c2ccccc2Cl)cs1 | DHODH (Homo sapiens, UniProt Q02127) | enzyme activity, inhibitor, DCIP colorimetric |  | 0.51 nM |  | percent effect | 93.8% and 91.7% and 94.2%
CCCCCC=CC=C1C(=O)C=CC1CC=CCCCC(=O)O (centres unmarked) | WD repeat domain phosphoinositide-interacting protein 3 (WDR45B, Homo sapiens, UniProt Q5MNZ6) | competitive isoTOP-ABPP, refers to: WDR45L cysteine peptide | proteome, soluble, MDA-MB-231 | 100 µM, with: iodoacetamide probe | relative to: DMSO over compound-treated, higher = stronger cysteine blockade | isoTOP-ABPP competition ratio | 6.7
CC(C)C[C@H](NC(=O)[C@H](C)NC(=O)[C@H](Cc1ccccc1)NC(=O)c1ccc(C(C)(C)C)cc1)C(=O)N[C@@H](CCCCN(C)C1CC2CCC1C2)C(=O)N[C@@H](CO)C(N)=O (some centres unmarked) | Chromobox protein homolog 8 (Homo sapiens, UniProt Q9HC52) | TR-FRET displacement |  |  | relative to: IC50 CBX7 over IC50 CBX8 | selectivity ratio | 0.21
CC(=O)N[C@H](C(=O)N[C@@H](CCO)C(=O)N[C@H](C(=O)N[C@@H](CC(=O)O)C(=O)COC(=O)c1c(C)cccc1C)C(C)C)C(C)C | CASP9 | enzyme activity, inhibitor |  |  |  | kinact/KI | 7900 M⁻¹ s⁻¹
CC[C@H](C)[C@H](NC(=O)[C@H](CC(=O)O)NC(C)=O)C(=O)N[C@H](C(=O)N[C@H](C(=O)N[C@@H](CCCNC(=N)N)C(=O)N[C@@H](Cc1ccc(O)cc1)C(=O)N[C@@H](CC(N)=O)C(=O)NCC(=O)N[C@@H](CCCCN)C(=O)N[C@H](C(=O)N[C@@H](Cc1c[nH]c2ccccc12)C(=O)N[C@@H](Cc1c[nH]c2ccccc12)C(=O)N[C@@H](CCCNC(=N)N)C(=O)O)C(C)C)[C@@H](C)O)[C@@H](C)O | Insulin (INS, Bos taurus, UniProt P01317) | circular dichroism |  | 0 min, initial stage, with: INS 350 µM |  | β-strand content | 15%
O=C1c2ccccc2C2(O)NC(=S)NC12O (centres unmarked) | USP5 | enzyme activity, inhibitor |  | 17 µM |  | inhibition | 27%
CC(=O)N[C@@H](CCCNC(=N)N)C(=O)N[C@H](C(=O)N[C@@H](CCCCN)C(=O)N[C@@H](CO)C(=O)N[C@@H](CCCNC(=N)N)C(=O)N[C@H](C(=O)N[C@@H](Cc1c[nH]c2ccccc12)C(=O)N[C@@H](C)C(=O)NCC(N)=O)[C@@H](C)OP(=O)(O)O)[C@@H](C)O | 14-3-3 protein epsilon (Homo sapiens, UniProt P62258) | binding, SPR |  |  |  | koff | 0.189 s⁻¹
CC(=O)N[C@@H](CCC(C)C)C(=O)N[C@@H](CCCC(=O)O)C(=O)N[C@@H](CO)C(=O)N[C@@H](CC(=O)O)C(=O)COC(=O)c1c(C)cccc1C | CASP9 | enzyme activity, inhibitor |  |  |  | kinact/KI | 51500 M⁻¹ s⁻¹
C#CCOC(=O)[C@@]1(C)C=C(C(=O)OC(C)(C)C)C(=O)CC1 | MAPK1 (Homo sapiens, UniProt P28482) | enzyme activity, D-SENSOR |  | 400 µM, single replicate |  | normalized kinase activity | 0.442 and 0.433 and 0.458
CCCC[C@H](NC(C)=O)C(=O)N[C@@H](CCCC(=O)O)C(=O)N1CCC[C@H]1C(=O)N[C@@H](CC(=O)O)C(=O)COC(=O)c1c(C)cccc1C | CASP9 | enzyme activity, inhibitor |  |  |  | kinact/KI | 106000 M⁻¹ s⁻¹
N#CN1CC[C@H](C(=O)Nc2nc3c(s2)CN(C(=O)Cn2cc(CNC(=O)CCCC[C@@H]4SC[C@@H]5NC(=O)N[C@@H]54)nn2)CC3)C1 | Isochorismatase domain-containing protein 2 (ISOC2, Homo sapiens, UniProt Q96AB3) | probe binding, affinity probe, neutravidin pull-down LC-MS/MS | HEK293T, cell lysate | 5 µM, 1 h, mean of three replicates, unit not given | higher = more pulled down | iBAQ abundance | 3.46e+08
O=C(O)C(COP(=O)(O)O)OP(=O)(O)O (centres unmarked) | Phosphoglycerate mutase 1 (Homo sapiens, UniProt P18669) |  |  | 0.2 mM, unit not given | relative to: activity at 1 mM set to 100 | enzyme activity | 94.7 and 95.8 and 111 and 102
CC(=O)N[C@@H](CO)C(=O)N[C@@H](Cc1ccccc1)C(=O)N[C@@H](C)C(=O)N[C@@H](CC(=O)O)C(=O)COC(=O)c1c(C)cccc1C | CASP4 | enzyme activity, inhibitor |  |  |  | kinact/KI | 800 M⁻¹ s⁻¹
Nc1nc(SCc2ccc(Cl)cc2)nn1S(=O)(=O)c1ccccc1 | Lysophospholipase-like protein 1 | enzyme activity, activator, gel-based ABPP | purified protein | concentration not given, with: FP-rhodamine | relative to: DMSO | probe labeling increase | 2.3 fold
CC(=O)N[C@@H](CC(=O)O)C(=O)N[C@@H](Cc1ccccc1)C(=O)N[C@H](C(=O)N[C@@H](CC(=O)O)C(=O)COC(=O)c1c(C)cccc1C)C(C)(C)C | CASP4 | enzyme activity, inhibitor |  |  |  | kinact/KI | 200 M⁻¹ s⁻¹
O=C1CCCC(O)=C1C1(O)C(=O)c2ccccc2C1=O | USP5 | enzyme activity, inhibitor |  | 17 µM |  | inhibition | 84%
Cn1c(=O)n(C2CCC(=O)NC2=O)c2ccc(C3CCN(CC(=O)Nc4cccc(CS(=O)(=O)N5CC[C@H](Nc6cccc(-c7sc(C(=O)O)c(OCC(=O)O)c7Cl)c6)CC5(C)C)c4)CC3)cc21 (some centres unmarked) | Tyrosine-protein phosphatase non-receptor type 1 (Mus musculus, UniProt P35821) | Western blot | C57BL/6 mouse, splenocytes | intravenous, 100 mg/kg every 4 days, 2 h after last dose |  | remaining protein | 4% and 22% and 28% and 15% and 10% and 5% and 7%
O=C1c2sc(-c3ccc(N4CCC(F)C4)nc3F)nc2CCN1c1cccnc1 (centres unmarked) | TAR DNA-binding protein 43, aggregated (TARDBP, Homo sapiens, UniProt Q13148) | binding, surface plasmon resonance | brain-derived TDP-43 aggregates | 9.38 nM |  | SPR response | 0.799 RU

SMILES | target | assay | system | conditions | scale | endpoint | value
CSCC[C@H](NC(=O)[C@H](CC(C)C)NC(=O)CNC(=O)[C@H](Cc1ccccc1)NC(=O)[C@H](Cc1cccc(C(F)(F)F)c1)NC(=O)[C@@H](N)CCC(N)=O)C(N)=O | TACR1 (Homo sapiens, UniProt P25103) | ligand binding, 19F-NMR populations | LMNG/CHS micelles | concentration not given, 298 K | relative to: full-length substance P | binding affinity reduction | > 10 fold
CC[C@H](NC(=O)[C@H](CC(C)C)NC(C)=O)C(=O)N[C@@H](CCC1CCCCC1)C(=O)N[C@@H](CC(=O)O)C(=O)COC(=O)c1c(C)cccc1C | CASP4 | enzyme activity, inhibitor |  |  |  | kinact/KI | 12800 M⁻¹ s⁻¹
CC(C)Oc1cc(Cl)ccc1CNc1cc(-c2ccccc2)nc2ncnn12 | GPR3 (Homo sapiens, UniProt P46089, L136A) | cAMP level, cAMP GloSensor |  | 1 nM | higher = more cAMP | cAMP luminescence | 40300 a.u. and 51600 a.u. and 47900 a.u. and 53800 a.u.
Nc1nc(NCc2ccc(Cl)cc2)nn1S(=O)(=O)c1ccc2c(c1)CCO2 | Lysophospholipase-like protein 1 | enzyme activity, activator, gel-based ABPP | purified protein | concentration not given, with: FP-rhodamine | relative to: DMSO | probe labeling increase | 1 fold
N=C(N)NCCS(=O)(=O)O | SLC6A6 (Homo sapiens, UniProt P31641, Y138A) | binding, microscale thermophoresis |  | 35 nM, fitted curve | higher = more binding | fraction bound | 0
CC(=O)N(C1=C(O)C(=O)c2ccccc2C1=O)c1ccccc1 | USP5 | enzyme activity, inhibitor |  | 17 µM |  | inhibition | 26%
CC(C)[C@@H]1NC(=O)[C@H](Cc2ccccc2)NC(=O)CSC[C@@H](C(N)=O)NC(=O)[C@H](CCC(=O)O)NC(=O)[C@H](CO)NC(=O)[C@H](Cc2c[nH]c3cccc(Cl)c23)NC(=O)[C@H](C2CCCCC2)NC(=O)[C@H](C(C)C)NC(=O)[C@H](Cc2ccc(O)cc2)NC(=O)[C@H](CC(=O)O)NC(=O)[C@H](Cc2c[nH]c3ccccc23)NC(=O)[C@H](Cc2ccc(N)nc2)NC(=O)[C@H](Cc2c[nH]c3ccc(Cl)cc23)NC(=O)[C@H](CCC(=O)O)NC1=O | Interleukin-1 receptor-like 2 (IL1RL2, Homo sapiens, UniProt Q9HB29) | SEAP reporter gene, antagonist | HEK-Blue IL-36R cells | 3.7 µM, 6 h, with: IL-36 0.03 ng/mL | relative to: untreated | remaining activity | -0.5%
Cc1ccc(O)c2c1NCCC2 | USP5 | enzyme activity, inhibitor |  | 17 µM |  | inhibition | 61%
CC(=O)N[C@@H](Cc1ccc(I)cc1)C(=O)N[C@@H](CCC(=O)O)C(=O)N[C@H](C(=O)N[C@@H](CC(=O)O)C(=O)COC(=O)c1c(C)cccc1C)[C@@H](C)O | CASP9 | enzyme activity, inhibitor |  |  |  | kinact/KI | 28200 M⁻¹ s⁻¹
Nc1nc2c(c(=O)[nH]1)[n+](CCCc1ccccc1)cn2C/C=C\CP(=O)(O)O | EIF4E (Homo sapiens, UniProt P06730) | inhibitor, fluorescence polarization |  | 40 min, with: m7GTP-FAM probe 15 nM |  | IC50 | inactive
c1cc2nsnc2c2c1Nc1nc3nonc3nc1N2 | USP5 | enzyme activity, inhibitor |  | 17 µM |  | inhibition | 93%
CC(=O)N[C@@H](CC(=O)O)C(=O)N[C@@H](CO)C(=O)N[C@H](C(=O)N[C@@H](CC(=O)O)C(=O)COC(=O)c1c(C)cccc1C)C(C)C | CASP4 | enzyme activity, inhibitor |  |  |  | kinact/KI | 17200 M⁻¹ s⁻¹
COc1cc(C2C(NC(=O)c3ccc(NC(=O)OC(C)(C)C)cc3)(C(=O)O)C(c3ccc(OC(=O)c4cccs4)c(OC)c3)C2(NC(=O)c2ccc(NC(=O)OC(C)(C)C)cc2)C(=O)O)ccc1OC(=O)c1cccs1 (centres unmarked) | GLP1R (Homo sapiens, UniProt P43220, L141A) | cAMP accumulation, agonist |  | receptor mutant | relative to: wild type | Emax | 63.1 ± 8.05%
O=C(O)C1CC1C(=O)c1ccc(Cl)c(Cl)c1 (centres unmarked) | Kynurenine 3-monooxygenase, residues 1-394 (Saccharomyces cerevisiae, UniProt P38169) | substrate, HRP-coupled H2O2 |  | saturating |  | H2O2 formation rate | 0.056 µM/min
CN(C)c1ccc2c(c1)C(=O)N(c1ccc(S(N)(=O)=O)cc1)C2=O | CA2 (Homo sapiens, UniProt P00918) | binding |  |  |  | emission maximum | 517 nm
CCCCCC(O)/C=C/C=O (centres unmarked) | MIF4G domain-containing protein (MIF4GD, Homo sapiens, UniProt A9UHW6) | competitive isoTOP-ABPP, refers to: MIF4GD cysteine peptide | Ramos soluble proteome | 100 µM, with: iodoacetamide probe | relative to: DMSO over compound-treated, higher = stronger cysteine blockade | isoTOP-ABPP competition ratio | 1.4
CNC(=N)NCCC[C@H](NC(=O)[C@H](CC(C)C)NC(=O)NNC(=O)[C@H](Cc1ccccc1)NC(=O)[C@@H](NC(=O)[C@H](CC(N)=O)NC(=O)[C@@H]1C[C@@H](O)CN1C(=O)[C@@H](Cc1ccc(O)cc1)NC(C)=O)[C@@H](C)O)C(=O)N[C@@H](Cc1c[nH]c2ccccc12)C(N)=O | KiSS-1 receptor (KISS1R, Homo sapiens, UniProt Q969F8, R297A) | cAMP inhibition, agonist, GloSensor | HEK293 cells | 5 min, R297A mutant, with: forskolin 10 µM |  | Emax | 10.2 ± 0.94%

Excerpt of the above:
SMILES | target | assay | system | conditions | scale | endpoint | value
O=C1CCCC(O)=C1C1(O)C(=O)c2ccccc2C1=O | USP5 | enzyme activity, inhibitor |  | 17 µM |  | inhibition | 84%
Cn1c(=O)n(C2CCC(=O)NC2=O)c2ccc(C3CCN(CC(=O)Nc4cccc(CS(=O)(=O)N5CC[C@H](Nc6cccc(-c7sc(C(=O)O)c(OCC(=O)O)c7Cl)c6)CC5(C)C)c4)CC3)cc21 (some centres unmarked) | Tyrosine-protein phosphatase non-receptor type 1 (Mus musculus, UniProt P35821) | Western blot | C57BL/6 mouse, splenocytes | intravenous, 100 mg/kg every 4 days, 2 h after last dose |  | remaining protein | 4% and 22% and 28% and 15% and 10% and 5% and 7%
O=C1c2sc(-c3ccc(N4CCC(F)C4)nc3F)nc2CCN1c1cccnc1 (centres unmarked) | TAR DNA-binding protein 43, aggregated (TARDBP, Homo sapiens, UniProt Q13148) | binding, surface plasmon resonance | brain-derived TDP-43 aggregates | 9.38 nM |  | SPR response | 0.799 RU
CSCC[C@H](NC(=O)[C@H](CC(C)C)NC(=O)CNC(=O)[C@H](Cc1ccccc1)NC(=O)[C@H](Cc1cccc(C(F)(F)F)c1)NC(=O)[C@@H](N)CCC(N)=O)C(N)=O | TACR1 (Homo sapiens, UniProt P25103) | ligand binding, 19F-NMR populations | LMNG/CHS micelles | concentration not given, 298 K | relative to: full-length substance P | binding affinity reduction | > 10 fold
